Measured values from different studies.
Numbered parts are unrelated; each lists some results of a single study. Changes are numbered by the printed parent chain.

Set 1
Target: CCND2, cyclin fold, Cln2 fusion (human)
Technique: yeast growth competition, sequencing
Matrix: yeast
Notes: weak parent motif
Relative to: not given
Reading: higher = stronger binding
Starting sequence: CABLES2 docking peptide (human); ICAKRSLCAAFSV; partner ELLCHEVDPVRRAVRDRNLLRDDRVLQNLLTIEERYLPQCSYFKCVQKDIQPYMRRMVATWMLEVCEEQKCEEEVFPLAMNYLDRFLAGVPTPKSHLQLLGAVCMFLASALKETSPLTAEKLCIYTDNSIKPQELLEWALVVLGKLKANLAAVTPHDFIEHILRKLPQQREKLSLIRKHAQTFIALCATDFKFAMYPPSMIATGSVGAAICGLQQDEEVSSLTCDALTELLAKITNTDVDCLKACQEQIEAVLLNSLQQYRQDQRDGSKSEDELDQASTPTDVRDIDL
For `ICAKRSACAAFSV [L7A]`, “normalised enrichment score” read -0.18.
For `ICAKRSLCAAFSA [V13A]`, “normalised enrichment score” read -0.329.
For `ICAKASLCAAFSV [R5A]`, “normalised enrichment score” read -0.313.
`ICAKRALCAAFSV [S6A]`: “normalised enrichment score” -0.117.
`IAAKRSLCAAFSV [C2A]` — result for “normalised enrichment score”: -0.451.

Set 2
Target: RNA binding protein fox-1 homolog 2, RRM domain, GST-SBP tag (RBFOX2, Homo sapiens, UniProt O43251-10, residues 100-194)
Technique: RNA Bind-n-Seq
Form: RNA
Matrix: in vitro
Tested at: 365 nM
Notes: natural RNA segment, single round, ends assumed
Relative to: no-protein control
Reading: higher = stronger binding
All sequences stand within: GGGAGUUCUACAGUCCGACGAUC … UGGAAUUCUCGGGUGCCAA
Construct (chain): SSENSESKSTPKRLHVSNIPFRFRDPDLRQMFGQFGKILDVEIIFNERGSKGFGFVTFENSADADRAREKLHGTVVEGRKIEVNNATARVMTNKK
`ACUUAUCUUGGGAAUGCCUGCAUGAGGAAGGAGAACGACCUGCCCUGAGGGUCAGUGCUCAGCCCAGCCCUCCACUGUUGGUGGCAACCGUGGGACACCUCAUUCCCUAC`: “RBNS enrichment (R)” 8.28.
Under “RBNS enrichment (R)”, `GAAUUACCAAAUAUGAAGUAUGAAUGUCUUACCCACGGUGAGGCUCUGCCUCCUUCUCUCUGCCUGGUUCUUCAGAAGGCAGUGAAUGGGUCAUAACUGGGACUCCAUCU` is recorded as 0.263.
`UAACUCAUGCAUGGCCACUGAACCUCUCUCUAGUAGCCUGGAUUUAUCAUUCUCUCUGCCUGCCCACCCCCUUUUUUGUAUAGCCCAAGAACCACUUCCAUGCCAUACUG`: “RBNS enrichment (R)” 1.15.
Under “RBNS enrichment (R)”, `CCUCUGUUCUCCUUUCUGACCCACUGGGAUUUGCUAGCAGGCUGCCCCAGCCCCAUCACCGAAACACAUACUCAAGAGCUCAAAUACCACUGCUCCCACCAGCGUACGGA` is recorded as 0.446.
For `AAAGACAGACAGGCAAAGACGGCACACGUUGGGUCUGCUUCCAGUCCAUAGGCCACCAAUUCUCCUUGCGCUGCUCAGGCCUUCUCUCACCAGAUGGGCUUCCAUUCACC`, “RBNS enrichment (R)” read 0.192.
`AUGGUAGGCUGAGUUUGCUGUCCAAUAGCUGUGUGACUUUGGGCAAGUCCCAGUCACCUUCCUGGCCUCACUGUCCUCAGCUGUAACCUGGGCAUUUGAGAGGUACAGGC`: “RBNS enrichment (R)” 0.309.
For `UCCCGGCCCGCCUGCCCAGACUGAUGAGCACAUCUCUCUGCCCUCUCCCUGUGUUCUGGGCUGGGGCCACCUUUGUGCAGCUUCGAGGACAGGAAAGGCCCCAAUCUUGC`, “RBNS enrichment (R)” read 0.425.
`AAAGUGCCCUUCAACGGACCCUGUUCACUGCUGCACUUCUCAAUGAAUUAAAACUGACUUCUGUUCUAGUGGCAAUGUGUCCUUUGUUUUUAGUCCACAGGUGUUGAUUC` — result for “RBNS enrichment (R)”: 0.214.

Set 3
Target: CREB3L4, bZIP domain (human)
Technique: DHFR protein complementation
Matrix: yeast
Notes: single substitutions, most at no-binding floor
Relative to: wild-type JUN-FOS pair
Reading: higher = stronger binding
Starting sequence: JUN, bZIP domain (human); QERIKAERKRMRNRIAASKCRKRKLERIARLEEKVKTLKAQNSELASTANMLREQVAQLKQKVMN; partner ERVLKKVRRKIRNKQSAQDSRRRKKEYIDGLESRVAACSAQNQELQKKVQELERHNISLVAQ
`L31M` gave a binding fitness of -1.57 natural log.
With `S47L` the binding fitness was -1.51 natural log.
The binding fitness of `E54Q` is reported as -1.55 natural log.
For `S47V`, the binding fitness was -1.3 natural log.
With `A29P` the binding fitness was -1.4 natural log.
For `V35H`, the binding fitness was -1.42 natural log.
The binding fitness of `L38K` is reported as -1.54 natural log.
`T48I` gave a binding fitness of -1.51 natural log.
With `N42V` the binding fitness was -1.34 natural log.
With `E54P` the binding fitness was -1.42 natural log.
For `N42C`, the binding fitness was -1.55 natural log.

Set 4
Substance: PhoQ, residues 284 288 289 292 302 303 SSCCRF
Technique: Sort-seq
Measured: YFP reporter
Matrix: E. coli
Notes: PhoQ-PhoP variant library
With: 10 µM Mg2+
Relative to: high Mg2+ state
Reading: higher = stronger signaling
For PhoP, residues 12 14 15 18 19 TQALL (Escherichia coli, UniProt P23836): fold induction read 13.6.
It gave 5.73 for fold induction (PhoP, residues 12 14 15 18 19 QYFSL (Escherichia coli, UniProt P23836)).
PhoP, residues 12 14 15 18 19 NYFRM (Escherichia coli, UniProt P23836) — fold induction: 16.1.

Some of these lines once more (set 1):
For `ICAKRSACAAFSV [L7A]`, “normalised enrichment score” read -0.18.
For `ICAKRSLCAAFSA [V13A]`, “normalised enrichment score” read -0.329.
For `ICAKASLCAAFSV [R5A]`, “normalised enrichment score” read -0.313.
